Assay results from different studies.
A part holds a random share of what one study measured. Several values in a cell are separate wells, animals, samples, runs or records.
UniProt Q96SW2, sequence (whole entry, looked up): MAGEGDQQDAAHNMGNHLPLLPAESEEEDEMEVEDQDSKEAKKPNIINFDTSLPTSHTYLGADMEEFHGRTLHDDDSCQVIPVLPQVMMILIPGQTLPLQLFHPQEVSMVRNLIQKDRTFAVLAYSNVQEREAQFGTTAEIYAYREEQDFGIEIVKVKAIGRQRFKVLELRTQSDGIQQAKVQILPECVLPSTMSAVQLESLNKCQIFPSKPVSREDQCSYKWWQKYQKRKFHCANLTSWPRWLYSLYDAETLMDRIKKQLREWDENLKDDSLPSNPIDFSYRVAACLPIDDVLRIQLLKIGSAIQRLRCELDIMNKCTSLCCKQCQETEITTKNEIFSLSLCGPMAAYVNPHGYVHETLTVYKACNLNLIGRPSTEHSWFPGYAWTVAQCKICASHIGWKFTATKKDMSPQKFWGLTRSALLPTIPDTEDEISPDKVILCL
UniProt Q9UKS7, sequence (whole entry, looked up): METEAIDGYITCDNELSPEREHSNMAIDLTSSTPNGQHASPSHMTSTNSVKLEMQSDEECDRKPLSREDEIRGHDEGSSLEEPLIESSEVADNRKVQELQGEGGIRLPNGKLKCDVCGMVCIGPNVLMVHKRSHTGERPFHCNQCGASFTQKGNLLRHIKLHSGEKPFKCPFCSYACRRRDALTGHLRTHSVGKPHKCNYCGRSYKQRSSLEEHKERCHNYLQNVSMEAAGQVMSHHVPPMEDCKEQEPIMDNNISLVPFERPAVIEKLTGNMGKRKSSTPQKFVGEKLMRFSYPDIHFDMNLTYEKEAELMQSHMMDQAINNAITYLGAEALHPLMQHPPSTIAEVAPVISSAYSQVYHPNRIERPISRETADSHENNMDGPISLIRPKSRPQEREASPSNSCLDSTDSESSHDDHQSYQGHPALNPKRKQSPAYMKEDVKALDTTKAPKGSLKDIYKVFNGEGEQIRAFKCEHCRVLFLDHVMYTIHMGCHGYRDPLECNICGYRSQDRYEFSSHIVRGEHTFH

Study 1 — route: oral
Structure (SMILES): CC(C)C[C@@H]1NC(=O)[C@@H](N(C)C(=O)[C@@H](NC(=O)[C@@H]2C[C@@H](F)CN2C(=O)C2(C(F)(F)F)CC(F)(F)C2)C2CC2)CCCCCCCN(C)C(=O)[C@H](Cc2cc(Cl)cnc2OC2CC2)N(C)C1=O
species | dose | time | tumour volume
NSG mice, sample B SCLC PDX | 100 mg/kg twice daily | day 26 | 214 mm3 and 236 mm3 and 226 mm3 and 221 mm3 and 258 mm3
mouse, sample A SCLC PDX | 100 mg/kg three times daily | day 0 | 140 mm3 and 158 mm3 and 205 mm3 and 115 mm3 and 162 mm3
NSG mice, sample B SCLC PDX | 100 mg/kg twice daily | day 12 | 184 mm3 and 223 mm3 and 206 mm3 and 300 mm3 and 214 mm3
mouse, sample A SCLC PDX | 100 mg/kg three times daily | day 18 | 186 mm3 and 301 mm3 and 281 mm3 and 185 mm3 and 264 mm3
NSG mice, sample B SCLC PDX | 100 mg/kg twice daily | day 5 | 174 mm3 and 292 mm3 and 188 mm3 and 202 mm3 and 211 mm3
mouse, sample A SCLC PDX | 100 mg/kg three times daily | day 7 | 115 mm3 and 218 mm3 and 140 mm3 and 125 mm3 and 198 mm3

Study 2 — matrix: CES1-/- mouse GI tissue homogenate; concentration: concentration not given; time: 60 min
SMILES | DON release
[2H]C([2H])([2H])OC(=O)[C@H](CCC(=O)C=[N+]=[N-])NC(=O)[C@H](Cc1c[nH]c2ccccc12)NC(C)=O | 19.1%
CC(=O)N[C@@H](Cc1c[nH]c2ccccc12)C(=O)N[C@@H](CCC(=O)C=[N+]=[N-])C(N)=O | 16%
CC(=O)N[C@@H](Cc1c[nH]c2ccccc12)C(=O)N[C@@H](CCC(=O)C=[N+]=[N-])C(=O)OC(CF)CF | 20%
COCCOCCOC(=O)[C@H](CCC(=O)C=[N+]=[N-])NC(=O)[C@H](Cc1c[nH]c2ccccc12)NC(=O)CN(C)C | 15.3%

Study 3 — observed: cell growth or viability; method: ATP luminescence; time: 6 days
SMILES: Cc1ncsc1-c1ccc(C(CO)NC(=O)C2CC(O)CN2C(=O)C(C(C)C)n2cc(-c3ccc(COc4c(-c5c(C)c(F)cc6[nH]ncc56)c(C5CC5)cc5c(N6CC7CC6CN7)nc(OC6CCOCC6)nc45)cc3)nn2)cc1 (centres unmarked)
cell line | concentration | viability
BXPC-3 | 30 nM | 97% and 106% and 115% and 117%
HT-29 | 3 nM | 94.3% and 93.6% and 95.2% and 84.6%
PK-59 | 3 nM | 84.7% and 77.4% and 86.3% and 85.6%
COLO 320 | 10 µM | 80.1% and 83.2% and 103% and 94.8%
T24 | 0.1 µM | 95.5% and 95.2% and 98.6% and 95.8%
HT-29 | 3 µM | 77.1% and 68.9% and 79.3% and 71.8%
SW-403 | 1 nM | 81% and 94.7% and 100% and 112%
HCT-116 | 3 nM | 99.5% and 92.9% and 89.4% and 106%

Mixed results
Compound | target or system | test | test system | conditions | endpoint | result
Cn1cc(-c2cccc(CN3CCC4(CC3)COc3c4ccc4c3CN(C3CCC(=O)NC3=O)C4=O)c2)cn1 (centres unmarked) | CRBN/Zinc finger protein Helios (Homo sapiens, UniProt Q96SW2+Q9UKS7) | degrader, HiBiT | HEK293 | 333.3 nM | protein remaining | 10.9%
C#CCN1C(=O)C(O)(C(=O)O)Oc2cc(F)ccc21 (centres unmarked) | Arabidopsis thaliana | root length | Col-0 | 6.25 µg/mL, 7 days, seed germination, dark | inhibition | 20.9%

Excerpt of the above (study 3):
cell line | concentration | viability
HT-29 | 3 nM | 94.3% and 93.6% and 95.2% and 84.6%
COLO 320 | 10 µM | 80.1% and 83.2% and 103% and 94.8%
